# Assay results from different studies.
# A part holds a random share of what one study measured.

# Study 1
# Target: Prothrombin, mature alpha-thrombin (F2, Homo sapiens, UniProt P00734)
# Technique: aptamer microarray, sandwich
# Molecule type: DNA with 2'F-ANA
# Sample: in vitro
# Concentration: 200 nM
# Setting: whole 15-mer aptamer, many near background
# With: Cy3 exosite-II aptamer, 400 nM
# Direction: higher = stronger binding
# Sequence: GGTTGGTGTGGTTGG
Modification,mean fluorescence intensity [a.u.]
2'F-ANA at 3 7 8 9 10 14,463
2'F-ANA at 1 2 3 5 6 8 9 10,50.2
2'F-ANA at 1 2 4 5 7 9 12 13 14,48.6
2'F-ANA at 2 3 5 7 8 12 13,223
2'F-ANA at 2 6 9 14,121
2'F-ANA at 3 5 6 7 8 13,105
2'F-ANA at 1 2 7 9 10 13,113
2'F-ANA at 1 3 5 7 8 9 12 13 14,48.4
2'F-ANA at 1 5 7 10 13 15,43.4
2'F-ANA at 2 4 5 7 11 14 15,245
2'F-ANA at 3 4 5 6 8 9 10 11 14 15,49
2'F-ANA at 2 3 4 5 8 11 12 13 14 15,57.8
2'F-ANA at 1 3 6 10 14,63.9
2'F-ANA at 1 2 4 7 10 11 12 13 15,54.6
2'F-ANA at 2 3 4 6 7 8 12 13 14,313
2'F-ANA at 2 3 4 5 6 7 9 13,54.7
2'F-ANA at 1 2 3 6 8 11 12 13,319
2'F-ANA at 1 2 4 5 6 7 8 11 12 14 15,55.1
2'F-ANA at 6 7 8 9 13 15,347

# Study 2
# Target: RNA binding protein fox-1 homolog 2, RRM domain, GST-SBP tag (RBFOX2, Homo sapiens, UniProt O43251-10, residues 100-194)
# Technique: RNA Bind-n-Seq
# Molecule type: RNA
# Sample: in vitro
# Concentration: 365 nM
# Setting: natural RNA segment, single round, ends assumed
# Baseline: no-protein control
# Direction: higher = stronger binding
# Construct (chain): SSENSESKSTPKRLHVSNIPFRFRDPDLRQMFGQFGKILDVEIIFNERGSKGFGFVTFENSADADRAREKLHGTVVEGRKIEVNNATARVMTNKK
Sequence,RBNS enrichment (R)
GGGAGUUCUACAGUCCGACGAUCAGCCGGCCCCAGGUGCUCCCCUGACAGUCCCUCCUCUCCGGAGCAUUUUGAUACCAGAAGGGAAAGCUUCAUUCUCCUUGUUGUUGGUUGUUUUUUCCUUUGCUCUUUCCUGGAAUUCUCGGGUGCCAA,0.494
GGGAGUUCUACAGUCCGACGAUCCCUUUUUAUGUAUGGGUUAGAAACUCUUUUUUCCCUAGUCAGAGCAGCCAGGCUGUACAAAAUCUGUGCUCUCUCGGUUCCCCAUGCCUCUAGAAGGCCGUUAAAACCAAUGGAAUUCUCGGGUGCCAA,0.244
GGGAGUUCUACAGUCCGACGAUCGCUCACACCAUGCUAUUUAAUUUUUAAAGUAACUUUUCAGAAAAUAUUACUGGCGUUUUGUUCAUUUUAAGACUGUUAACAUGAAGAAAAGUGUGCUAGAACUUUUUAAAUGGAAUUCUCGGGUGCCAA,0.529
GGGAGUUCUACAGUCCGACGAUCUAGUGUCAGUUAACUAUAAGGAAGUUCCGGAGAGGUAAAGCUCAGGAAAGAUGUAAUGCAAAGCUGAUUGUUUAAUGUCUUACAGAUUUACACUGUCUUUAAAAGGCCAAUGGAAUUCUCGGGUGCCAA,0.283
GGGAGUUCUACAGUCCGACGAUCAUGGCCACUUGGGCCUGACUCUAAGUUUCUGCCCCAGUGAAACAGACCAUGUGCAAUUCCCAGGUAAGGGUACCUCAGACCCUUCCUGUCCAUGUAGUUCCGACUGCAGCUGGAAUUCUCGGGUGCCAA,0.202
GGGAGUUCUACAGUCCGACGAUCAGGGUGUGGCAUGGCUCAGUCUGGCCCCCUUGAUUACCGGCCUAGCCCCUGCUCACAUCACAGCUGUCUGAAGAACAGUGAGGUGGAGUGCCUAGAACUCCCGUGGUGGUUGGAAUUCUCGGGUGCCAA,0.249
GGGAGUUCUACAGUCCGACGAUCAUUCAGUGGGCAAGUAAAUUAUGGACUGCAAAAUAAUGAUUUUUAUUCAAGAAAGCUUUAAAAGUUUUAUAUCCAGAUAUACAACCACAAUAAAGCAAAAUAACCUACUAUGGAAUUCUCGGGUGCCAA,0.55
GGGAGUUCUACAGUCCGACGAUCGGGUGGGUUGGUGUCUCUUAUCGCUCCACUGGGGUUCCUCUCUGGAUACAGGAGGUGGCUUCUUCAGGUUCCAUAUCCCCAAUGGUGUGAAUCACAGCUAAGAUCACCUCUGGAAUUCUCGGGUGCCAA,0.317
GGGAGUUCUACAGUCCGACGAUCCAAUUGUUUUUACAGUUUUAGCCAAGUUUCUGUGAAUGCUAGAGAUUUAUACUUGAUUAUUUGUAUUUUCAUAAUGAGCUUCUUUGGGGACUCUAAAGAAGCAUUUUUGUUGGAAUUCUCGGGUGCCAA,6.14
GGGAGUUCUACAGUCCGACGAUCUCGGCUCGCCUCUGCUCCUUUCAUCUAGAAAGAAGCCACUGACCCUGACAGCCCACGGCGGGUACACUGAGCAGCUGCAUUGGUGCUGUCACUUUUUUAAGGCUUUCUGUUGGAAUUCUCGGGUGCCAA,0.265
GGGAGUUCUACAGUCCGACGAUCGGUGGGCCAACCCUCAUGUCCCCCACUCCCUUGCAUUAUUUCUUUGUGUCUUGUUCAGGAGAAAAGAGGGCCUUGUUACUUUCCACUUCUCAAUAAAUGUUUGUUAUUCCUGGAAUUCUCGGGUGCCAA,12.7
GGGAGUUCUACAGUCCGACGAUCACAAGAGGACUAGAGUUCAUCAAGCCUUGAAAGGCAGGCUUCACAGUGCCGAGUUGGCGGGAAAAGCAAAUUCUUUUGAAGUCUUAGUCUUUCCCUCAGUAGCGGUUUCUUGGAAUUCUCGGGUGCCAA,0.227

# Study 3
# Target: Fragile X messenger ribonucleoprotein 1, C-terminal low-complexity region (Fmr1, Mus musculus, UniProt P35922)
# Technique: RNA Bind-n-Seq
# Molecule type: RNA
# Sample: in vitro
# Concentration: 200 nM
# Setting: whole 134-nt RNA, ends assumed
# With: 150 mM KCl
# Baseline: input library
# Direction: higher = stronger binding
Sequence,log2 enrichment
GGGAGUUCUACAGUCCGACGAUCUCAAGUCCUGUGCUACACAUCGUAUGUACCGAAUCGGUUUGGAAAAAGGUUUGGAAAGUAUUAUGUUACGCCGUUCGGAUCUGCACUUCCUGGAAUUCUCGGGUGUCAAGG,-0.785
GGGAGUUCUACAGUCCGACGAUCUGGUGUUAUUUUUGCACUACAAGGGCUCUGAAGACUGCCAGGCUUGAAAUGAAGAACGAUGUCACCUGCCUAUCACAGCCAGGUGACAAUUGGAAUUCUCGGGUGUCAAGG,-2.27
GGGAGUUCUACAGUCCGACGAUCACCAUGCAGGUGGGCAUCUUUGGGAAGUGGGGCAAGGGGGGGAUAGGGAGGGGGGUAACACUUUGGGAACAGGUGGUCCCAGCUCGUUUCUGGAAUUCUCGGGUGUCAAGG,1.01
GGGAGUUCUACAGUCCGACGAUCGCUGGAAGUAAAAACAAAUGGAAAUGCUUCGGAUAGUGGCAGGGGUGGGGGUUGCUAAGGAAAGGGUGGGAUGGGAGUGGGUAAAGAGUUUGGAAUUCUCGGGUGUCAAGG,0.21
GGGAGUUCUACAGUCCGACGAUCAACAGACAACACGCACCCACACAGACACAGAGGGAAGGGGUUGGGAUGGGGACAGGGUGCACAGCAGGGCGGGGUAGGACCCCAGCCCCUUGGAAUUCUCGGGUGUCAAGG,1.14
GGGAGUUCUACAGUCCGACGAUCAGUCCUGUGCUACACAUCGUAUGUACCGAAUCGGGUUUUGGGGUUUUGGGUUUUGGGGAAAGUAUUAUGUUACGCCGUUCGGAUCUGCACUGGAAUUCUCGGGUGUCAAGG,0.661
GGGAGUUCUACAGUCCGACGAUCUCAAGUCCUGUGCUACACAUCGUAUGUACCGAAUCGGUUUGGGGUUUGGGUUUGGAAAGUAUUAUGUUACGCCGUUCGGAUCUGCACUUCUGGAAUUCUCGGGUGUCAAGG,-0.278
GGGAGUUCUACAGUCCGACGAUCUCCUGUGCUACACAUCGUAUGUACCGAAUCAAACCCCCAAAUUUUUUUAAACCCCCAAAAAAGUAUUAUGUUACGCCGUUCGGAUCUGCAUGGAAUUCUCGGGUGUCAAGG,-0.24
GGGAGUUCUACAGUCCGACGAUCUCCUGUGCUACACAUCGUAUGUACCGAAUCGGGUUUUUUGGGUUUUUUGGUUUUUUGGGGAAAGUAUUAUGUUACGCCGUUCGGAUCUGCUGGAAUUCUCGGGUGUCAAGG,-0.0969
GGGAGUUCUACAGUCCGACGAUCACCAUGCAGGUGGGCAUCUUUGGGGAGUGGGGCAAGGGGGGGAUAGGGAGGGGGGUAACACUUUGGGAACAGGUGGUCCCAGGUCGUUUCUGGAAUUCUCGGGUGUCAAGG,0.872

# Study 4
# Target: RING finger protein unkempt homolog, zinc fingers 1-6, GST-SBP tag (UNK, Homo sapiens, UniProt Q9C0B0, residues 30-357)
# Technique: RNA Bind-n-Seq
# Molecule type: RNA
# Sample: in vitro
# Concentration: not given
# Setting: RNA with constant flanks, human-mouse chimeric sites, ends assumed
# Baseline: input RNA pool
# Direction: higher = stronger binding
# Target sequence (chain): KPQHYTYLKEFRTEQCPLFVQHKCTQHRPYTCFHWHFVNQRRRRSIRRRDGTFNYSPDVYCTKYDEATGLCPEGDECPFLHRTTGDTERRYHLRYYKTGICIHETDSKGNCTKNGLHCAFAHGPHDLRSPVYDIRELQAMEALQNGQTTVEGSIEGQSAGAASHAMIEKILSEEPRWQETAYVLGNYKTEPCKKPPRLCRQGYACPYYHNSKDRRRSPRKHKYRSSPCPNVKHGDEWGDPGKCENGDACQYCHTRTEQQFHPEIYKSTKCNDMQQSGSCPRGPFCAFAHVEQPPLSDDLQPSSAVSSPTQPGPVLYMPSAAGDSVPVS
Sequence,bound/input enrichment
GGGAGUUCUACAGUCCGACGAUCUGUAGUUUCUUGAUUUAUCAUUUUUCUCUUUUCUUUCUUUCCUUUAGGAAAAGCCUAAAGAUUAGGUUGUAAGAAAAGAAAAUAGAAUGUUUCGAAGACCUGUGUUAAUUACAGGUAGUCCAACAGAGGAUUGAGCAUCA,0.519 ratio
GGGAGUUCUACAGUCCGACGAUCGCUCCUCCCCGCUCUGCAGCCUGGGGACACUGGGCUGGGACCAGAAUCCAGCUUUCUUUUAAAACUCUCAGUGUAACUGUAUCCCGUUUUUUUCUUUUUUUUUUUUAUAGUGUAUUUUUUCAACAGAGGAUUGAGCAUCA,39.7 ratio
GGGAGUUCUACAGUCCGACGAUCUCUUUAAAAAAAAAAUUACCUUUUCUGACAGUGCUUUAUGGAGUAAAGAUCCACGUUCAAGCUCAAAGAGCAAAGGCUUUGCACGGAGCUCAAACAUAAAAGAAAGAAAGAUUUCUGAGACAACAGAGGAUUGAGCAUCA,0.163 ratio
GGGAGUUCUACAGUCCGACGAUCUGGCGCCUGCGCUCCCCGUUUUUAAAUUUAAGUGUAUUUUUAUAAGAUACAUGUAUUUACAAUUGAGCUUUUGUUACAUAAUGCUGAAAUGCUACUGGAGAUUAUGAAAAAUGUUUCAAUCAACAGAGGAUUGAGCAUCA,0.335 ratio
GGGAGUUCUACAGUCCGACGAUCCUUAAUGUUAAUAUUUUUGAAUAAAUGUAAAACCAUGGUCUGCUUUUGGUACUACAUGCAUUAAUAAAAGGUUAAGUUUUGUUUUCCACUGAAGUACUAUUUAACAUCUCAGAAAAAAACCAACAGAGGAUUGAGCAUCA,0.0944 ratio
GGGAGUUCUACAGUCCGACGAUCCAACAGAGUCUAGGAUGGGUUCAUUACAUGAUUCAUGAGCCAGAACCACAUAUUCUUCUCUUUAGACGACCUCUUCCAAAAGAACAACAAAAAUGAAGUGCAGCUGGGGAUCGUCAAUCUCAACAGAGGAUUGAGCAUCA,0.444 ratio
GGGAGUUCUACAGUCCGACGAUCGUAGCUGGGACUACAGAAAUGCUGGUAAUUUCAGUCACUUGCUGAUGACUUCUGAUGUCCCAGCAAAUAAUGCCACAGUUGACUGCUGAGAAGAUACUUCUGAGGACCCACGUCUAAGGUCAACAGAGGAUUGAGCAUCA,0.129 ratio
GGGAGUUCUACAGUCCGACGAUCCCCCAAUACCAUUUGCAGGUCUGGAACUGCACUCUCUUUAAAGUUUUACAUGUAUACAUUUUAGGGCUGUAGAUUUAUUUUCCUGGUUUUGUUUUUCUUGCUUAUUCUUUGAGCACAGAACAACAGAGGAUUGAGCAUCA,2.34 ratio
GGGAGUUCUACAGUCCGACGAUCCUCAGAGAUGUGGCAUAUCAAUAUGUGAAAAAGGGGGCUCGUAUAUUUGUGGAAGGGAAAAUAGACUAUGGCGAGUACAUGGAUAAAAACAAUGUGAGGCGGCAAGCAACAACAAUCAUACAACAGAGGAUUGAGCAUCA,0.497 ratio
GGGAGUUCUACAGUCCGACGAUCGUUCGGCUCUGGGAUCAUGCCACAAUGACAGAAGUGAAAUCUCUAAAUUUUAAUAUGUCUGUUAGCAGCAUGGAGUAUAUUCCUGAAGGAGAGAUUUUGGUUAUAACUUAUGGACGAUCUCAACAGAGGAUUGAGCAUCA,0.466 ratio
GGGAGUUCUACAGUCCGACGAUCGAAACAUUUAAAUUUAAAGAAGCUGUUGUUCUAGGAAGCACGGACUUUCUAGAAGAUGAUAUAGAGAAAAUUGUAGAAGAACUGGGGAAAGAAUACAAGGGCAACGCCUACCAUCUGAUGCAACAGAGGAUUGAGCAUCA,1.21 ratio

# For quick reference, copied from above (study 1):
Modification,mean fluorescence intensity [a.u.]
2'F-ANA at 2 3 5 7 8 12 13,223
2'F-ANA at 6 7 8 9 13 15,347
2'F-ANA at 3 7 8 9 10 14,463
2'F-ANA at 3 4 5 6 8 9 10 11 14 15,49
2'F-ANA at 1 3 5 7 8 9 12 13 14,48.4
2'F-ANA at 1 2 4 5 6 7 8 11 12 14 15,55.1
